Published values gathered from unrelated publications.
Compare with care: the assays were run in different laboratories. ± gives the spread as reported.

CN[C@](C)(C[18F])C(=O)O  tracer uptake (MDA-MB-468 tumour model; host not given, liver; 1 h, tumour-bearing): 3.3 %ID/g
CCCC[C@H](NC(=O)CNC(=O)CNC(=O)c1ccc(NN)nc1)C(=O)N[C@H]1CC(=O)NCCCC[C@@H](C(N)=O)NC(=O)[C@H](Cc2c[nH]c3ccccc23)NC(=O)[C@H](CCCNC(=N)N)NC(=O)[C@@H](Cc2ccccc2)NC(=O)[C@H](Cc2c[nH]cn2)NC1=O [technetium-99m labelled]  uptake (C57 mouse, B16/F1 melanoma, urine; intravenous, 24 h): 97.93 ± 0.28 %ID
N=C(N)NCCC[C@@H]1NC(=O)[C@H](CCCCNC(=O)CNC(=O)CNC(=O)CNC(=O)CC[C@H](NC(=O)CCOCCOCCOCCOCCNC(=O)CC[C@H](NC(=O)CN2CCN(CC(=O)O)CCN(CC(=O)O)CCN(CC(=O)O)CC2)C(=O)NCCOCCOCCOCCOCCC(=O)N[C@@H](CCC(=O)NCC(=O)NCC(=O)NCC(=O)NCCCC[C@@H]2NC(=O)[C@@H](Cc3ccccc3)NC(=O)[C@H](CC(=O)O)NC(=O)CNC(=O)[C@H](CCCNC(=N)N)NC2=O)C(=O)NCC(=O)NCC(=O)NCC(=O)NCCCC[C@@H]2NC(=O)[C@@H](Cc3ccccc3)NC(=O)[C@H](CC(=O)O)NC(=O)CNC(=O)[C@H](CCCNC(=N)N)NC2=O)C(=O)NCC(=O)NCC(=O)NCC(=O)NCCCC[C@@H]2NC(=O)[C@@H](Cc3ccccc3)NC(=O)[C@H](CC(=O)O)NC(=O)CNC(=O)[C@H](CCCNC(=N)N)NC2=O)NC(=O)[C@@H](Cc2ccccc2)NC(=O)[C@H](CC(=O)O)NC(=O)CNC1=O [indium-111 labelled]  tumour to tissue ratio (athymic nude mice, female, U-87 MG glioma xenograft, tumour and kidney; intravenous, 24 h; relative to: tumour over kidney): 2.96 ± 0.36
CC(=CCC(O)C(C)=Cc1csc(C)n1)CC=CC(C)C(O)C(C)C(=O)C(C)(C)C(O)CC(=O)O (stereo not shown)  half-life (human, plasma; intravenous infusion, 48 mg/m2 KOS-1584, 3 h infusion, cycle 1): 31.3 ± 9.76 h
[2H]C([2H])([2H])C([2H])([2H])C([2H])([2H])OC(C(=O)OC1CCNCC1)(c1ccccc1)c1ccccc1  half-life (male human, plasma; oral, 18 mg, multiple doses): 70 h
CSCC[C@H](NC(=O)CNC(=O)CNC(=O)[C@H](CO)NC(=O)[C@H](CC(C)C)NC(=O)[C@@H]1CCCN1C(=O)[C@H](CO)NC(=O)[C@H](CC(N)=O)NC(=O)[C@H](CC(C)C)NC(=O)[C@H](C)NC(=O)[C@@H](NC(=O)[C@H](CC(C)C)NC(=O)[C@H](Cc1c[nH]cn1)NC(=O)[C@H](CC(C)C)NC(=O)[C@@H](NC(=O)[C@@H]1CCCN1C(=O)[C@H](CCC(N)=O)NC(=O)[C@H](Cc1ccccc1)NC(=O)[C@H](CC(=O)O)NC(=O)[C@H](CCCNC(=N)N)NC(=O)[C@H](Cc1c[nH]cn1)NC(=O)[C@H](CO)NC(=O)[C@H](Cc1c[nH]cn1)NC(=O)[C@H](CCSC)NC(=O)[C@H](CC(=O)O)NC(=O)CNC(=O)[C@H](CCCNC(=N)N)NC(=O)[C@H](CC(=O)O)NC(=O)CNC(=O)[C@@H](N)CCCNC(=N)N)C(C)C)C(C)C)C(N)=O  half-life (metabolic stability; cynomolgus monkey, blood; 20 µg/mL, whole blood): 0.0101 h
CC(C)C[C@H](NC(=O)[C@H](Cc1cccc2ccccc12)NC(=O)[C@H](CNC(=O)c1ccc2cc(F)ccc2c1)NC(=O)[C@H](CO)NC(=O)C1CCNCC1)C(=O)N[C@@H](CN)C(=O)N1CCC[C@H]1C(=O)N[C@H](C(N)=O)[C@@H](C)O  half-life (chemical stability; male human, serum; 1 mM, pH 7.4): > 24 h
CC(C)C[C@H](NC(=O)[C@H](Cc1ccc(O)cc1)NC(=O)[C@@H]1CCCN1C(=O)[C@H](CCCNC(=N)N)NC(=O)[C@@H]1CCCN1C(=O)[C@H](CCCCN)NC(=O)[C@H](CC(=O)O)NC(=O)[C@@H]1CCCN1C(=O)[C@H](CCCNC(=N)N)NC(=O)C1(N)CCCCC1)C(=O)N1CCC[C@H]1C(=O)N[C@@H](CCCNC(=N)N)C(=O)N1CCC[C@H]1C(=O)N[C@@H](CCCNC(=N)N)C(=O)N1CCC[C@H]1C(=O)N1CCC[C@H]1C(=O)N[C@@H](CCCNC(=N)N)C(=O)N1CCC[C@H]1C(=O)N[C@H](C(=O)N[C@@H](CCCNC(=N)N)C(=O)N[C@@H](CSc1c(F)c(F)c(-c2c(F)c(F)c(SC[C@H](NC(=O)[C@H](CCCNC(=N)N)NC(=O)[C@@H](NC(=O)[C@@H]3CCCN3C(=O)[C@H](CCCNC(=N)N)NC(=O)[C@@H]3CCCN3C(=O)[C@@H]3CCCN3C(=O)[C@H](CCCNC(=N)N)NC(=O)[C@@H]3CCCN3C(=O)[C@H](CCCNC(=N)N)NC(=O)[C@@H]3CCCN3C(=O)[C@H](CC(C)C)NC(=O)[C@H](Cc3ccc(O)cc3)NC(=O)[C@@H]3CCCN3C(=O)[C@H](CCCNC(=N)N)NC(=O)[C@@H]3CCCN3C(=O)[C@H](CCCCN)NC(=O)[C@H](CC(=O)O)NC(=O)[C@@H]3CCCN3C(=O)[C@H](CCCNC(=N)N)NC(=O)C3(N)CCCCC3)C(C)C)C(=O)NN)c(F)c2F)c(F)c1F)C(=O)NN)C(C)C  half-life (chemical stability, HPLC; human, serum; 0.1 µg/µL, pH 7.4): ~1 h
N=C(N)NCCC[C@@H]1NC(=O)[C@H](CCCCNC(=O)CC[C@H](NC(=O)CCOCCOCCOCCOCCNC(=O)CC[C@H](NC(=O)CN2CCN(CC(=O)O)CCN(CC(=O)O)CCN(CC(=O)O)CC2)C(=O)NCCOCCOCCOCCOCCC(=O)N[C@@H](CCC(=O)NCCCC[C@@H]2NC(=O)[C@@H](Cc3ccccc3)NC(=O)[C@H](CC(=O)O)NC(=O)CNC(=O)[C@H](CCCNC(=N)N)NC2=O)C(=O)NCCCC[C@@H]2NC(=O)[C@@H](Cc3ccccc3)NC(=O)[C@H](CC(=O)O)NC(=O)CNC(=O)[C@H](CCCNC(=N)N)NC2=O)C(=O)NCCCC[C@@H]2NC(=O)[C@@H](Cc3ccccc3)NC(=O)[C@H](CC(=O)O)NC(=O)CNC(=O)[C@H](CCCNC(=N)N)NC2=O)NC(=O)[C@@H](Cc2ccccc2)NC(=O)[C@H](CC(=O)O)NC(=O)CNC1=O [indium-111 labelled]  tumour to tissue ratio (athymic nude mice, female, U-87 MG glioma xenograft, tumour and liver; intravenous, 72 h; relative to: tumour over liver): 4.89 ± 1.62
CC(C)C[C@@H](NC(=O)[C@@H](Cc1ccccc1)NC(=O)[C@H](N)Cc1ccccc1)C(=O)N[C@H](CCCCN)C(=O)N1CCC(N)(C(=O)O)CC1  half-life (human, plasma; intravenous, 15 µg/kg): 2 h
CC[C@H](C)[C@@H]1NC(=O)[C@H](Cc2ccc(O)cc2)NC(=O)[C@@H](N)CSCSC[C@@H](C(=O)N2CCC[C@H]2C(=O)N[C@@H](CC(C)C)C(=O)NCC(N)=O)NC(=O)[C@H](CC(N)=O)NC(=O)[C@H](CCC(N)=O)NC1=O  half-life (chemical stability; male human, serum; 450 µM): 72 h
CSCC[C@H](NC(=O)CNC(=O)[C@H](CC(=O)O)NC(=O)[C@@H](NC(=O)[C@@H](NC(=O)[C@@H](NC(=O)CNC(=O)[C@H](CCC(N)=O)NC(=O)[C@H](CCSC)NC(=O)[C@H](CC(=O)O)NC(=O)[C@H](C)NC(=O)[C@H](C)NC(=O)[C@@H](NC(=O)[C@H](CO)NC(=O)[C@@H](N)CC(C)C)[C@@H](C)O)C(C)C)C(C)C)[C@@H](C)O)C(=O)N[C@@H](C)C(=O)N[C@@H](CO)C(=O)NCC(=O)N[C@@H](CC(C)C)C(=O)N[C@@H](CC(=O)O)C(=O)N[C@@H](CCCCN)C(=O)N[C@@H](CC(=O)O)C(=O)N[C@@H](Cc1ccc(O)cc1)C(=O)N[C@@H](CC(C)C)C(=O)N[C@@H](CCCCN)C(=O)N1CCC[C@H]1C(=O)N[C@@H](CC(=O)O)C(=O)N[C@@H](CC(=O)O)C(=O)O  half-life (human, serum; intravenous, 1.66 mg/kg, patients, infusion): 0.054 h
CC[C@H](C)C(=O)N1CCC(NC(=O)Nc2ccc(OC(F)(F)F)c(F)c2)CC1  half-life (human, plasma; oral, 16 mg, single dose, healthy volunteers): 44.8 h

Repeated from above:
[2H]C([2H])([2H])C([2H])([2H])C([2H])([2H])OC(C(=O)OC1CCNCC1)(c1ccccc1)c1ccccc1  half-life (male human, plasma; oral, 18 mg, multiple doses): 70 h
CSCC[C@H](NC(=O)CNC(=O)CNC(=O)[C@H](CO)NC(=O)[C@H](CC(C)C)NC(=O)[C@@H]1CCCN1C(=O)[C@H](CO)NC(=O)[C@H](CC(N)=O)NC(=O)[C@H](CC(C)C)NC(=O)[C@H](C)NC(=O)[C@@H](NC(=O)[C@H](CC(C)C)NC(=O)[C@H](Cc1c[nH]cn1)NC(=O)[C@H](CC(C)C)NC(=O)[C@@H](NC(=O)[C@@H]1CCCN1C(=O)[C@H](CCC(N)=O)NC(=O)[C@H](Cc1ccccc1)NC(=O)[C@H](CC(=O)O)NC(=O)[C@H](CCCNC(=N)N)NC(=O)[C@H](Cc1c[nH]cn1)NC(=O)[C@H](CO)NC(=O)[C@H](Cc1c[nH]cn1)NC(=O)[C@H](CCSC)NC(=O)[C@H](CC(=O)O)NC(=O)CNC(=O)[C@H](CCCNC(=N)N)NC(=O)[C@H](CC(=O)O)NC(=O)CNC(=O)[C@@H](N)CCCNC(=N)N)C(C)C)C(C)C)C(N)=O  half-life (metabolic stability; cynomolgus monkey, blood; 20 µg/mL, whole blood): 0.0101 h
